{"data": "Measured values of several laboratories", "note": "Each numbered part is a random draw from the data of one study; scales do not carry over between parts."}
{"data": "Series 1", "target": "Sal-like protein 4, full length isoform A (SALL4, Homo sapiens, UniProt Q9UJQ4, residues 1-1053)", "method": "universal PBM", "molecule type": "double-stranded DNA, one strand shown", "matrix": "in vitro", "tested at": "600 nM", "setting": "8-mer, flanks averaged, mean of replicates", "direction": "higher = stronger binding", "sequence of UniProt Q9UJQ4 (whole entry, looked up)": "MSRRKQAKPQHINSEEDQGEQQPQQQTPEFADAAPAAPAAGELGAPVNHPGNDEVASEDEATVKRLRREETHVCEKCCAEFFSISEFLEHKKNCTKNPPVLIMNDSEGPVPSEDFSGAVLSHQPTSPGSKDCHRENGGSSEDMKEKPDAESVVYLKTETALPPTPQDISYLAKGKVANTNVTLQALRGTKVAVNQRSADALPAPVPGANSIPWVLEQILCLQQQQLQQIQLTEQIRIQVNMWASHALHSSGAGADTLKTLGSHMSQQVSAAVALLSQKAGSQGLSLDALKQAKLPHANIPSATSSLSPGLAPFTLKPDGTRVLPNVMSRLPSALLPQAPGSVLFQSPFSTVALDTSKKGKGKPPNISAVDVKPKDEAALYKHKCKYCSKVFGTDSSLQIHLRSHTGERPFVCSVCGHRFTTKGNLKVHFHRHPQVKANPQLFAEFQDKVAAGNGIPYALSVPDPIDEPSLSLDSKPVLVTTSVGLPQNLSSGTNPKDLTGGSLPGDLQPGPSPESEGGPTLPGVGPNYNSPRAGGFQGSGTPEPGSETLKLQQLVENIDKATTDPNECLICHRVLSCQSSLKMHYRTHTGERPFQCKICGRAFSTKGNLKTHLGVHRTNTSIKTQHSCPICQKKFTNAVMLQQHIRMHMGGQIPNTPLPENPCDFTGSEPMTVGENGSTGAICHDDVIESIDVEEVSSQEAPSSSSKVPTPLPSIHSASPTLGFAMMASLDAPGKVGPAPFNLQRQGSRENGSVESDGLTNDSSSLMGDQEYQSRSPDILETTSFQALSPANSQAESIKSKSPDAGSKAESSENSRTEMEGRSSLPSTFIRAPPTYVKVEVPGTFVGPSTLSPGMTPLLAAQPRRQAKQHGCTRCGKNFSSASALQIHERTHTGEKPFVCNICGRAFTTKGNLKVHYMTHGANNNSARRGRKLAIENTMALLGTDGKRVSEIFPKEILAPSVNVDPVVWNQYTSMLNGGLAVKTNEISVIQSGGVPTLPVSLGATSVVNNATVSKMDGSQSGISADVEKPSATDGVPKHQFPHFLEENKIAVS"}
{"Strand": "CCTATACG", "E-score": -0.0599}
{"Strand": "CACTCGCC", "E-score": -0.284}
{"Strand": "GGATAGCA", "E-score": 0.0915}
{"Strand": "AGGTTCCG", "E-score": -0.185}
{"Strand": "CGTCAGCC", "E-score": -0.248}
{"Strand": "AGCTAAGG", "E-score": -0.155}
{"Strand": "CGCTGCGC", "E-score": -0.332}
{"Strand": "GTAGCGAA", "E-score": 0.026}
{"Strand": "AACGGCTC", "E-score": -0.211}
{"Strand": "ATGACGCG", "E-score": 0.0841}
{"data": "Series 2", "target": "Interferon regulatory factor 5, full length, phosphomimetic (IRF5, Homo sapiens, UniProt Q13568-2, residues 1-514, K96S/S451D/S453D/S456D/S462D)", "method": "protein-binding microarray", "molecule type": "double-stranded DNA, one strand shown", "matrix": "in vitro", "tested at": "250 nM", "setting": "60-bp whole probe", "together with": "salmon DNA 0.4 mg/ml", "baseline": "random background probes", "direction": "higher = stronger binding", "all sequences stand within": "GCCTAGCAC … GTGCTAGGTCTTGATTCGCTTGACGCTGCTG"}
{"Strand": "TCAGCTTGGTGTCTCTGACT", "log fluorescence [z-score]": -0.465}
{"Strand": "GACGGTTTCGGATCCGGGAC", "log fluorescence [z-score]": 5.11}
{"Strand": "CTCTGTCTAAAATTGTTAAA", "log fluorescence [z-score]": 0.255}
{"Strand": "TTAGGACTGGGTATTGGTTA", "log fluorescence [z-score]": -0.199}
{"Strand": "TTAGATTTCAGTATCTATTA", "log fluorescence [z-score]": 3.23}
{"Strand": "GACGATTTCAGTCCCGAGAC", "log fluorescence [z-score]": 0.873}
{"Strand": "TTAGATTCTAGTTTCGATTA", "log fluorescence [z-score]": 9.7}
{"Strand": "TTAGATTTCAGCCTCGATTA", "log fluorescence [z-score]": 0.649}
{"data": "Series 3", "target": "Prothrombin, mature alpha-thrombin (F2, Homo sapiens, UniProt P00734)", "method": "aptamer microarray, sandwich", "molecule type": "DNA with 2'F-ANA", "matrix": "in vitro", "tested at": "200 nM", "setting": "whole 15-mer aptamer, many near background", "together with": "Cy3 exosite-II aptamer, 400 nM", "direction": "higher = stronger binding", "strand": "GGTTGGTGTGGTTGG"}
{"Modification": "2'F-ANA at 2 8 9 11", "mean fluorescence intensity [a.u.]": 415}
{"Modification": "2'F-ANA at 1 2 4 8 10 14", "mean fluorescence intensity [a.u.]": 54.3}
{"Modification": "2'F-ANA at 2 3 8 9 12 13 14 15", "mean fluorescence intensity [a.u.]": 441}
{"Modification": "2'F-ANA at 2 4 5 7 8 11 15", "mean fluorescence intensity [a.u.]": 63.8}
{"Modification": "2'F-ANA at 7 8 10 11", "mean fluorescence intensity [a.u.]": 174}
{"Modification": "2'F-ANA at 1 2 3 4 5 6 7 12 15", "mean fluorescence intensity [a.u.]": 125}
{"Modification": "2'F-ANA at 1 2 3 5 6 10 13 14 15", "mean fluorescence intensity [a.u.]": 44.4}
{"data": "Mixed results"}
{"Substance": "PhoQ, residues 284 288 289 292 302 303 TSTLRA", "target": "PhoP, residues 12 14 15 18 19 NMSFL (Escherichia coli, UniProt P23836)", "assay": "Sort-seq, refers to: YFP reporter", "test system": "E. coli", "conditions": "PhoQ-PhoP variant library, together with: 10 µM Mg2+", "scale": "baseline: high Mg2+ state, higher = stronger signaling", "quantity": "fold induction", "result": 7.75}
{"note": "Some of these lines once more (series 1):"}
{"Strand": "CCTATACG", "E-score": -0.0599}
{"Strand": "CACTCGCC", "E-score": -0.284}
{"Strand": "GGATAGCA", "E-score": 0.0915}
{"Strand": "AGGTTCCG", "E-score": -0.185}
